Measurements of several laboratories.
Each numbered part is a random draw from the data of one study; scales do not carry over between parts. “And” joins repeats or separate records; there may be more than shown.
Sequence of UniProt P9WI81 (whole entry, looked up): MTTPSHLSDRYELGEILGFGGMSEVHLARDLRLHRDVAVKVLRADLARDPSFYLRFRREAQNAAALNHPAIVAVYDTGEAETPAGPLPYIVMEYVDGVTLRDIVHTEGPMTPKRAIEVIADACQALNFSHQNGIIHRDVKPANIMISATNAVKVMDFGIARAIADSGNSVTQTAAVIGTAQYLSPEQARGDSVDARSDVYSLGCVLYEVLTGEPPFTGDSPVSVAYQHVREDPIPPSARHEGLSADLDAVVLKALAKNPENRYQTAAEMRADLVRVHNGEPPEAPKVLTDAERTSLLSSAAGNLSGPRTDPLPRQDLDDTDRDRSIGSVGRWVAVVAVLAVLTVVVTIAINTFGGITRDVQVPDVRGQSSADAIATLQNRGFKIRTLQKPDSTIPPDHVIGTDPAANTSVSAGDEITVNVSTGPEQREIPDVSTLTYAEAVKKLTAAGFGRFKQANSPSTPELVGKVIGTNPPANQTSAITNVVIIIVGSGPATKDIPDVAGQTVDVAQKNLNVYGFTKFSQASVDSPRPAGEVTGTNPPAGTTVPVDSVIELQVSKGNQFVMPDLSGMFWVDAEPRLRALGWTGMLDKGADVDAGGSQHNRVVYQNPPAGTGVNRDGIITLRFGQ

Sample 1
Target: WD repeat-containing protein 5 (WDR5, Homo sapiens, UniProt P61964)
Method: SPR
For `C[C@@H]1CN(c2ccc(-c3cc(C(=O)NCCOCCOCCOCCOCCOCCOCCNC(=O)/C=C/c4[nH]cc(C(=O)N[C@@H](CC(N)=O)c5ccc(F)c(Cl)c5)c4-c4ccc(Cl)cc4F)ccc3F)cc2NC(=O)c2ccc(F)cc2C(F)(F)F)C[C@H](C)N1C`, “association rate constant” read 60700 M⁻¹ s⁻¹.
Under “association rate constant”, `C[C@@H]1CN(c2ccc(-c3cc(C(=O)NCCCNC(=O)/C=C/c4[nH]cc(C(=O)N[C@@H](CC(N)=O)c5ccc(F)c(Cl)c5)c4-c4ccc(Cl)cc4F)ccc3F)cc2NC(=O)c2c[nH]c(=O)cc2C(F)(F)F)C[C@H](C)N1C` is recorded as 83300 M⁻¹ s⁻¹.
`C[C@@H]1CN(c2ccc(-c3cc(C(=O)NCCOCCOCCOCCOCCNC(=O)Cn4cc(-c5[nH]cc(C(=O)N[C@@H](CC(N)=O)c6ccc(F)c(Cl)c6)c5-c5ccc(Cl)cc5F)cn4)ccc3F)cc2NC(=O)c2c[nH]c(=O)cc2C(F)(F)F)C[C@H](C)N1C`: “association rate constant” 43400 M⁻¹ s⁻¹.

Sample 2
SMILES: COc1ccc(-c2c(Nc3ccccn3)[nH]c3c(C4=CCCCC4)c(-c4ccccc4)nn3c2=O)cc1
Host: human
Medium: plasma
Route: oral
It gave 243 µg·h/mL and 255 µg·h/mL for AUC(0-t) (200 mg twice daily).
LC-MS/MS non-compartmental; 50 mg once daily, cycle 1 — AUC(0-t): 32.3 µg·h/mL.
It gave 234 µg·h/mL for AUC(0-t) (LC-MS/MS non-compartmental; 200 mg twice daily, cycle 1).
For LC-MS/MS; 50 mg once daily: AUC(0-t) read 33 µg·h/mL and 34.9 µg·h/mL.

Sample 3
Host: mouse
Medium: microsomes or S9
Tested at: 2 µM
Time: 0.5 h
With `O=C(c1cn2cc(Cl)ccc2n1)N1CCC(c2ccc(Cc3ccccc3F)cn2)CC1` the remaining compound was 2.89%.
With `COc1ccc(C)cc1/N=c1/[nH]cnc2c1oc1ccccc12` the remaining compound was 2.87%.
With `CN1CCC2(CCCN2Cc2ccc(Cl)cc2Br)CC1` the remaining compound was 60.4%.
The remaining compound of `Cc1ccc(C(=O)N2CCc3c([nH]cnc3=O)C2)s1` is reported as 9.58%.
The remaining compound of `CCC[C@@H]1CN(C(=O)c2ccc3c(=O)n(C)cnc3c2)C[C@H]1NC(C)=O` is reported as 88.7%.
`CCc1c(C(=O)NCC(OC)C(C)(C)C)cnc2c1c(=O)n(C)c(=O)n2C` (stereo not shown) has a remaining compound of 8.78%.
`COc1c(NC(=O)c2ccc[nH]2)cc(Cl)cc1C(=O)N(C)C` gave a remaining compound of 3.82%.
The remaining compound of `O=C(c1ccccc1)c1cc(Cl)ccc1Nc1cc(Br)cc2c1N(c1ncccn1)CC2` is reported as 16.9%.

Other studies, line by line
With `C[C@@H](c1cccc(C#N)c1)n1cc(Cl)cc(C(N)=O)c1=N` the remaining binding was 100% (Serine/threonine-protein kinase PknB (pknB, Mycobacterium tuberculosis, UniProt P9WI81); cell-free assay, competition with immobilised ligand; 1 µM).
